Assay results collected from several papers.
Parts stem from different laboratories: compare values within a part only. Substitutions count along the parent as printed.

Set 1
Target: Interferon regulatory factor 5, full length, phosphomimetic (IRF5, Homo sapiens, UniProt Q13568-2, residues 1-514, S451D/S453D/S456D/S462D)
Method: protein-binding microarray
Form: double-stranded DNA, one strand shown
Matrix: in vitro
Concentration: 940 nM top
Notes: 60-bp whole probe
Added: salmon DNA 0.4 mg/ml
Reference: random background probes
Direction: higher = stronger binding
All sequences stand within: GCCTAGCAC … GTCTTGATTCGCTTGACGCTGCTG
Sequence	fitted relative affinity
GACGATATCAGGATCGAGACGTGCTAG	-0.157 z-score
GACGATCTGAGTCTCGAGACGTGCTAG	0.247 z-score
GACGGACTTGGTTTCGGGACGTGCTAG	4.78 z-score
GACGGTTTCGGGTTACGGGACGTGCTA	9.61 z-score
TTAGGTTCCGGTTTCGGTTTGTGCTAG	8.96 z-score
TTTGGAGTCATTCTCAACCCGTGCTAG	0.0475 z-score
GACGGTAGCGACTATCGGGACGTGCTA	0.0217 z-score
GGTGCCTCGGGTTCAGGGAGGTGCTAG	-0.157 z-score
CACTCTCTACATGTGTTTACGTGCTAG	2 z-score
GACAGTTTCGGTATCGGGACGTGCTAG	14.7 z-score
TTAGATCTCAGTGTCGATTAGTGCTAG	0.315 z-score
ATTTGTTTCCATTTTCTGAAGTGCTAG	1.69 z-score
TAAGATATCGGGACTGGATTAGTGCTA	-0.0564 z-score
TTAAATATCGGGACTGGATTAGTGCTA	-0.27 z-score
TTAGGATTCGGGTTTCGGTTAGTGCTA	6.21 z-score
GACGGTATCAGTCTCGAGACGTGCTAG	3.63 z-score
TCACATCTCAAGTAGCCTACTGTGCTA	0.682 z-score
TTAGGTCTCGGGCTCGGTTAGTGCTAG	1.55 z-score
GACGGTTTCGGTCGCGGGACGTGCTAG	13.6 z-score

Set 2
Target: CCND2, cyclin fold, Cln2 fusion (human)
Method: yeast growth competition, sequencing
Matrix: yeast
Notes: weak parent motif
Reference: not given
Direction: higher = stronger binding
Starting sequence: MASTL docking peptide (human); PMIAKNLMCELDE
Substitution	normalised enrichment score
PMISKNLMCELDE [A4S]	-0.0797
PYIAKNLMCELDE [M2Y]	0.325
PMILKNLMCELDE [A4L]	-0.22
PMIAKNLMCEQDE [L11Q]	0.233
PMIAKNLICELDE [M8I]	0.0082
PMIAKNNMCELDE [L7N]	0.0196
PMKAKNLMCELDE [I3K]	-0.154
PMIAKNLMCEPDE [L11P]	0.078
PMIAVNLMCELDE [K5V]	-0.112
PMIAKNLPCELDE [M8P]	0.212
PMIAKNLYCELDE [M8Y]	-0.192
PMIAPNLMCELDE [K5P]	-0.0856
PMIAKNLMCELQE [D12Q]	0.225
PMIAKNLMCETDE [L11T]	-0.0223
PMIAKGLMCELDE [N6G]	0.133
PMFAKNLMCELDE [I3F]	0.000169
PRIAKNLMCELDE [M2R]	0.143
PMIAKNRMCELDE [L7R]	-0.00349
PMIAKNLMCILDE [E10I]	-0.00187
PMIAKNSMCELDE [L7S]	0.0377
PMIAKNLMCTLDE [E10T]	-0.188
PMIAKNLMCELGE [D12G]	0.211
PMIAKELMCELDE [N6E]	0.0334
PMIAKNLMQELDE [C9Q]	0.0328
PMCAKNLMCELDE [I3C]	0.156

Set 3
Target: Fragile X messenger ribonucleoprotein 1, C-terminal low-complexity region (Fmr1, Mus musculus, UniProt P35922)
Method: RNA Bind-n-Seq
Form: RNA
Matrix: in vitro
Concentration: 200 nM
Notes: whole 134-nt RNA, ends assumed
Added: 150 mM LiCl
Reference: input library
Direction: higher = stronger binding
Library: 7-deaza-guanosine replaces G
All sequences stand within: GGGAGUUCUACAGUCCGACGAUC … UGGAAUUCUCGGGUGUCAAGG
Sequence	log2 enrichment
CCUGUGCUACACAUCGUAUGUACCGAAUCGGGGAAAAAAGGAAAAAAGGGGAAAAAAGGGGAAAGUAUUAUGUUACGCCGUUCGGAUCUG	0.846
UAACUUUAGAGGAGGAUCUGAUGGAUAUGGCAGUGGAUGUGGAUUUGGGGAUGGCUAUAAUGGGUAUGGAGGAGGACCUGGAGGUGGCAA	1.07
UAUCUUAUCUACACAUGGGGGACUGAAGAGUUCGAGAGAUCCAAGAGGAAGAAUCCAGCUGCCUAUGAAAAUGACAAAUGAGCAACGCAU	-0.293
CCAGAGCCAGAGAGCUUGGGCCCUGGGACGCCUGGGUUCCCCGAGCAGGAGGAAGACGAACUUCACCGCACCCUGGGCGUGGAGCGGUUU	-3.18
UCAAGUCCUGUGCUACACAUCGUAUGUACCGAAUCGGAAAAAAAGGAGGUUUGGAAAGUAUUAUGUUACGCCGUUCGGAUCUGCACUUCC	-1.87
ACCAUGCAGGUGGGCAUCUUUGGGAAGUGGGGCAAGGGGGGGAUAAAGAGGGGGGUAACACUUUGGGAACAGGUGGUCCCAGGUCGUUUC	1.02
UCCUGUGCUACACAUCGUAUGUACCGAAUCGGGGAAAAAGGGGUGGGGAAAAAAAGGGGAAAGUAUUAUGUUACGCCGUUCGGAUCUGCA	-1.9
GUCCUGUGCUACACAUCGUAUGUACCGAAUCAAACCCAAACCCCCCCAAACCCCCAAAAAAGUAUUAUGUUACGCCGUUCGGAUCUGCAC	0.505

Further values, each from its own experiment
Substance	target	test	system	setting	how to read	measurement	result
PhoQ, residues 284 288 289 292 302 303 TAVSDG	PhoP, residues 12 14 15 18 19 SMASL (Escherichia coli, UniProt P23836)	Sort-seq, measured: YFP reporter	E. coli	PhoQ-PhoP variant library, added: 10 µM Mg2+	reference: high Mg2+ state, higher = stronger signaling	fold induction	7.35

Excerpt of the above (set 2):
Substitution	normalised enrichment score
PMIAKGLMCELDE [N6G]	0.133
PMFAKNLMCELDE [I3F]	0.000169
PRIAKNLMCELDE [M2R]	0.143
PMIAKNRMCELDE [L7R]	-0.00349
PMIAKNLMCILDE [E10I]	-0.00187
PMIAKNSMCELDE [L7S]	0.0377
